Measurements pooled from the literature.
A part holds a random share of what one study measured.

Set 1
Target: Centromere-binding protein 1, full length, N-terminal tag (CBF1, Saccharomyces cerevisiae, UniProt P17106, residues 1-351)
Sequence of UniProt P17106 (whole entry, looked up): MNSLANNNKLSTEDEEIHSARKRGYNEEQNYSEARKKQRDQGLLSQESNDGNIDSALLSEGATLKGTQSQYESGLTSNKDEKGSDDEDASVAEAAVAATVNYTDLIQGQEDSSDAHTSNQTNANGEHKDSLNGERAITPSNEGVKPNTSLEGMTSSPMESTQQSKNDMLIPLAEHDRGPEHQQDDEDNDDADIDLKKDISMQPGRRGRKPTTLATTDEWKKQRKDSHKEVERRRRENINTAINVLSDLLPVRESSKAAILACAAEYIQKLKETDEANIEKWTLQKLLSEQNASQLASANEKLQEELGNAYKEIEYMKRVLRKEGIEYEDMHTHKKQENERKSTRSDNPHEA
Technique: protein-binding microarray
Form: double-stranded DNA, one strand shown
Sample: in vitro
Tested at: 0.8 µM
Notes: whole 60-bp probe, no competitor
Reading: higher = stronger binding
All sequences stand within: … GTCTTGATTCGCTTGACGCTGCTG
`CCTAACTACTATATCGTCATGACATAGCTTCGTACA` has a fluorescence intensity of 546 a.u.
With `GAAATACCTCTGCATCAGACACTGATAACATACTAG` the fluorescence intensity was 506 a.u.
`GAATTTTTTTCCTACCACATGGCATAGATATTTTAG` has a fluorescence intensity of 963 a.u.
The fluorescence intensity of `GAAATGATCTTCATACACGTTGTAATGCTACTGTAG` is reported as 566 a.u.
For `GAAATGGTGCAAGTTCACGTCAGTCAGTTGTTCTAG`, the fluorescence intensity was 561 a.u.
`GAAGGTTGCGTATGCCACGTACGAAAAGTTGTTTAG` has a fluorescence intensity of 530 a.u.
For `CTAAATTTTCATTCCGTGGTGCGTGATCTGATGTTC`, the fluorescence intensity was 1420 a.u.
`CTAAATCCAATTAGCGACATCACCGAGAAAGTATTC` gave a fluorescence intensity of 506 a.u.
`CTAGGCTACGTGCGTACACGTGTTTTGCGGTCTTTC` has a fluorescence intensity of 4350 a.u.
The fluorescence intensity of `CTAGTTGGGTGTGTGCGTGTGTGTATGTTTCCATTC` is reported as 561 a.u.
`GAAGCAAGGTCCCATCAGCTGTACAAAATAATCTAG` has a fluorescence intensity of 568 a.u.
`CTATACTAGCGCCATCACGGCTCAGTCGTTATTTTC` has a fluorescence intensity of 513 a.u.
`CTACATTAATGCCTTCACGGGAATACGTATAGATTC` gave a fluorescence intensity of 562 a.u.
With `GAAAGACCACAACGTGTCACTGCTAAGCTGAATTAG` the fluorescence intensity was 554 a.u.
`CTAAGAAGGAAAGCGCACATGTGATATCTCGCATTC` gave a fluorescence intensity of 1730 a.u.
The fluorescence intensity of `GAAACTTATATGAACGCCGTGATGCGTACGTCTTAG` is reported as 543 a.u.
`TGTACGAAGCTATTTCATATGATTATAGTAGTTAGG` gave a fluorescence intensity of 523 a.u.
`GAAGATATCTTTTGAAACATCAGAAGTGTCCGTTAG` has a fluorescence intensity of 546 a.u.
For `GAAGTACGCTATCATGTGATGAAATATATTCCCTAG`, the fluorescence intensity was 3550 a.u.
`CTAGGAATAATCATCATCACCATTATCACTGTTTTC` gave a fluorescence intensity of 525 a.u.
The fluorescence intensity of `GAAATTAAATCGCACCACCAACCAATGACAGTCTAG` is reported as 522 a.u.

Set 2
Target: Histone acetyltransferase KAT6A, winged helix 1, GST fusion (KAT6A, Homo sapiens, UniProt Q92794, residues 1-85)
Technique: protein binding microarray
Form: double-stranded DNA, one strand shown
Sample: in vitro
Tested at: not given
Notes: 8-mer, flanks averaged, mean of 2 arrays, mostly near background
Reference: not given
Reading: higher = stronger binding
Construct (chain): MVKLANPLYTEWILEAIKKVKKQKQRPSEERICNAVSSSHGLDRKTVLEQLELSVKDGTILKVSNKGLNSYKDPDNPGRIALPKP
For `CTCCATTA`, the E-score was -0.0467.
For `GACGCACC`, the E-score was 0.0689.
`GCGAGTGA` has an E-score of 0.123.
`ATGCGTAC` has an E-score of 0.156.
The E-score of `CCGAAAGA` is reported as -0.118.
The E-score of `ACAAGGAC` is reported as -0.249.
`ATCTCCGC` gave an E-score of 0.088.
With `CCAGGCGC` the E-score was 0.18.
The E-score of `CCGCTGCC` is reported as 0.264.
The E-score of `AACCTGTC` is reported as -0.0844.
For `AGAGCGCC`, the E-score was 0.324.
For `ACAGGTAG`, the E-score was -0.114.
With `GATCGCCA` the E-score was 0.0342.
For `AGCTTTTC`, the E-score was -0.0607.
`CAAATGCA` has an E-score of -0.179.
`TGCTCGAA` gave an E-score of -0.099.
With `CATCCACC` the E-score was 0.0061.
For `CAAAGAGA`, the E-score was -0.149.
`ACACACCA` gave an E-score of -0.324.
The E-score of `AACGTGTC` is reported as 0.0196.
For `CACCCTGG`, the E-score was -0.213.
`ACAGTTGC` has an E-score of -0.114.
`AGGCTAGG` gave an E-score of -0.143.
With `CATGTTAA` the E-score was -0.0384.

Set 3
Target: Fragile X messenger ribonucleoprotein 1, C-terminal low-complexity region (Fmr1, Mus musculus, UniProt P35922)
Technique: RNA Bind-n-Seq
Form: RNA
Sample: in vitro
Tested at: 200 nM
Notes: whole 134-nt RNA, ends assumed
Added: 150 mM LiCl
Reference: input library
Reading: higher = stronger binding
Library: 7-deaza-guanosine replaces G
All sequences stand within: GGGAGUUCUACAGUCCGACGAUC … UGGAAUUCUCGGGUGUCAAGG
`GUCCUGUGCUACACAUCGUAUGUACCGAAUCAAAUUUUUAAAUUUUUAAACCCCCAAAAAAGUAUUAUGUUACGCCGUUCGGAUCUGCAC` gave a log2 enrichment of 0.624.
`UCCUGUGCUACACAUCGUAUGUACCGAAUCGGGAAAAAAGGAAAAAAGGGGAAAAAAGGAAAGUAUUAUGUUACGCCGUUCGGAUCUGCA` has a log2 enrichment of -0.723.
`UGGGAGGUGGAUUUUGUUUAUUUUUUUAGCUCAUUUCCAGGGGUGGGAAUUUUUUUUUAAUAUGUGUCAUGAAUAAAGUUGUUUUUGAAA` has a log2 enrichment of 0.00818.
With `CCAUAGACCCCUUUCUUCUCCCCUUCCCCACGGUAGGAACAUAGCGUGUUUAUAUUUUAUGGCCAAACUAUUUUGAAUUUUGUUGUCCGG` the log2 enrichment was 0.966.
With `CACAGACAACACGCACCCACACAGACACAGAGGGAAGGGGCUGGGAUGGGGACAGGGUGCACAGCAGGGCGGGGUAGGACCCCAGCCCCU` the log2 enrichment was 0.723.
The log2 enrichment of `UUGGACUAUGGAUCAGGUACUGUGCUCAGCAUCAGAAAAUGGGAUGACAAUGAACAGAGUAACAGGACUAUAUUUCUGAAAAAGGAUGAA` is reported as -1.01.
`UCAAGUCCUGUGCUACACAUCGUAUGUACCGAAUCGGUUUUUGGAAAAAGGAGGAAAGUAUUAUGUUACGCCGUUCGGAUCUGCACUUCC` has a log2 enrichment of -0.421.
For `AAGUCCUGUGCUACACAUCGUAUGUACCGAAUCGGAAAGGAAAAAAAGGUUUUUGGAAAGUAUUAUGUUACGCCGUUCGGAUCUGCACUU`, the log2 enrichment was -2.3.
`UGUGCUACACAUCGUAUGUACCGAAUCGGGUUUUUUUGGGUUUUUUUGGGGUUUUUUUGGGGAAAGUAUUAUGUUACGCCGUUCGGAUCU` has a log2 enrichment of 1.67.
For `UAACUUUAGAGGAGGAUCUGAUGGAUAUGGCAGUGGACGUGGAUUUGGGAAUGGCUAUAAUGGGUAUGGAGGAGGACCUGGAGGUGGCAA`, the log2 enrichment was -0.0131.
With `UGUGCUACACAUCGUAUGUACCGAAUCGGGGAAAAAAAGGGGUUUUUUUGGGGAAAAAGGGGAAAGUAUUAUGUUACGCCGUUCGGAUCU` the log2 enrichment was -1.64.

Set 4
Target: TATA-box-binding protein 1 (TBP1, Arabidopsis thaliana, UniProt P28147, residues 1-200, full length assumed)
Technique: protein-binding microarray
Form: double-stranded DNA, one strand shown
Sample: in vitro
Tested at: not given
Notes: k-mer, scored over probes, only values ≥0.25
Reading: higher = stronger binding
Residues (chain): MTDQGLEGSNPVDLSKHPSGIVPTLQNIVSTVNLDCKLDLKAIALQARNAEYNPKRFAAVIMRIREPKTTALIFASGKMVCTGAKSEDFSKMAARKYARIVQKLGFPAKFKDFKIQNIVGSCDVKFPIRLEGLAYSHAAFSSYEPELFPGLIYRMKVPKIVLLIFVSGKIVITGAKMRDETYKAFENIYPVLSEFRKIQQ
`TAATACA` has an E-score of 0.311.
For `AATAGCT`, the E-score was 0.26.
For `ATTAAAG`, the E-score was 0.379.
The E-score of `AACATGT` is reported as 0.283.
The E-score of `AGATTTA` is reported as 0.334.
For `CAATTAA`, the E-score was 0.293.
`TATAATA` gave an E-score of 0.461.
For `AGACTAT`, the E-score was 0.253.
With `ATAAGTG` the E-score was 0.292.
With `ATAAACA` the E-score was 0.377.
With `GGAAATA` the E-score was 0.27.
`AATATAT` gave an E-score of 0.479.
With `CCTTAAA` the E-score was 0.369.
`GGGTATA` gave an E-score of 0.364.
The E-score of `TAATAAA` is reported as 0.433.
`AAAAAGA` gave an E-score of 0.252.
`GACTTTA` has an E-score of 0.343.

Set 5
Target: Prothrombin, mature alpha-thrombin (F2, Homo sapiens, UniProt P00734)
Technique: aptamer microarray, sandwich
Form: DNA with 2'F-ANA
Sample: in vitro
Tested at: 200 nM
Notes: whole 15-mer aptamer, many near background
Added: Cy3 exosite-II aptamer, 400 nM
Reading: higher = stronger binding
Strand: GGTTGGTGTGGTTGG
For `2'F-ANA at 1 2 3 6 7 10 12 15`, “mean fluorescence intensity” read 91.2 a.u.
For `2'F-ANA at 2 9 10 11 12 13 14`, “mean fluorescence intensity” read 85.9 a.u.
`2'F-ANA at 1 7 9 11 12 15` — result for “mean fluorescence intensity”: 335 a.u.
`2'F-ANA at 5 8 9 14 15`: “mean fluorescence intensity” 92.1 a.u.
`2'F-ANA at 2 3 4 5 9 10 13 14` — result for “mean fluorescence intensity”: 55.9 a.u.
For `2'F-ANA at 2 3 8 9 10 14 15`, “mean fluorescence intensity” read 297 a.u.
`2'F-ANA at 1 2 3 4 8 10 11 14 15` — result for “mean fluorescence intensity”: 67.1 a.u.
`2'F-ANA at 1 4 6 9 10 11 13` — result for “mean fluorescence intensity”: 57.6 a.u.
For `2'F-ANA at 1 2 3 7 10 11 12 14`, “mean fluorescence intensity” read 56.6 a.u.
`2'F-ANA at 1 2 3 5 6 7 9 11 12 15` — result for “mean fluorescence intensity”: 84.6 a.u.
`2'F-ANA at 2 3 4 5 6 9 11 12 13 14 15`: “mean fluorescence intensity” 50.4 a.u.
For `2'F-ANA at 1 3 4 6 7 9 11 13 14`, “mean fluorescence intensity” read 55.7 a.u.
For `2'F-ANA at 1 3 4 5 6 9 10 11 12 14`, “mean fluorescence intensity” read 49.1 a.u.
Under “mean fluorescence intensity”, `2'F-ANA at 1 7 9 10 11 13` is recorded as 50.4 a.u.
`2'F-ANA at 1 2 3 4 5 9 11 12 13 15` — result for “mean fluorescence intensity”: 71.5 a.u.
Under “mean fluorescence intensity”, `2'F-ANA at 1 2 6 12 13 15` is recorded as 241 a.u.
`2'F-ANA at 2 4 6 8 9 10 15` — result for “mean fluorescence intensity”: 80.1 a.u.
`2'F-ANA at 1 3 5 9 10 13 14` — result for “mean fluorescence intensity”: 45.5 a.u.
`2'F-ANA at 1 4 5 9 10 11 13 14`: “mean fluorescence intensity” 47 a.u.
`2'F-ANA at 1 3 5 6 7 10 11 12 14 15` — result for “mean fluorescence intensity”: 75.5 a.u.
Under “mean fluorescence intensity”, `2'F-ANA at 2 3 4 5 6 7 9 12 13` is recorded as 98.5 a.u.
Under “mean fluorescence intensity”, `2'F-ANA at 1 4 7 8 9 11 13 14` is recorded as 52.6 a.u.
`2'F-ANA at 2 5 7 9 10 13 14`: “mean fluorescence intensity” 47.1 a.u.
`2'F-ANA at 2 5 6 7 8 10 11 13 14`: “mean fluorescence intensity” 47.5 a.u.
`2'F-ANA at 1 6 8 11 13 14`: “mean fluorescence intensity” 63.1 a.u.

Some of these lines once more (set 2):
For `ACAGGTAG`, the E-score was -0.114.
`ACACACCA` gave an E-score of -0.324.
The E-score of `AACGTGTC` is reported as 0.0196.
For `GACGCACC`, the E-score was 0.0689.
With `GATCGCCA` the E-score was 0.0342.
With `CATCCACC` the E-score was 0.0061.
`ATCTCCGC` gave an E-score of 0.088.
With `CATGTTAA` the E-score was -0.0384.
The E-score of `CCGAAAGA` is reported as -0.118.
For `CAAAGAGA`, the E-score was -0.149.
The E-score of `ACAAGGAC` is reported as -0.249.
`AGGCTAGG` gave an E-score of -0.143.
The E-score of `CCGCTGCC` is reported as 0.264.
